Published values pooled from the literature.
Lines come from different studies, so protocols differ. Values after ≈ are worked out from the molar mass of the structure shown.
Chain of UniProt P21554 (whole entry, looked up): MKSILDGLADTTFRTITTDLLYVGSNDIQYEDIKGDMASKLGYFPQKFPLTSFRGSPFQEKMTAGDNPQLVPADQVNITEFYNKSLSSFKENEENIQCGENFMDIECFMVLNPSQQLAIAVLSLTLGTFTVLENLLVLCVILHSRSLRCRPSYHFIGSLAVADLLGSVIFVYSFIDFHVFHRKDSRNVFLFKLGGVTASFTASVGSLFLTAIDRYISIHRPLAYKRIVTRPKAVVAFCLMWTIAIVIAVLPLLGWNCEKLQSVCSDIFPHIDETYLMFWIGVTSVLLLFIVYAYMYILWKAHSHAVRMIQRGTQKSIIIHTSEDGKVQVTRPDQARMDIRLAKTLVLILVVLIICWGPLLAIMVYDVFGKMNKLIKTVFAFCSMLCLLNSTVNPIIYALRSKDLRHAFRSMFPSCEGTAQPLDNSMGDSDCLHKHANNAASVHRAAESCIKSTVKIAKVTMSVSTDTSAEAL

Compound | tested on | assay | system | setting | how to read | quantity | value
CN[C@](C)(C[18F])C(=O)O | MDA-MB-468 tumour model |  | host not given, lung | 2 h, tumour-bearing |  | tracer uptake | 1 %ID/g
N[C@]1(c2ccccc2Cl)CCC[C@H](O)C1=O |  |  | Wistar rat | 20 mg/kg, with: intravenous 20 mg/kg | reference: intravenous dose | oral bioavailability | 46.3%
CC[C@H](C)C(=O)N1CCC(NC(=O)Nc2ccc(OC(F)(F)F)c(F)c2)CC1 |  |  | human, plasma | oral, 8 mg, fasted |  | AUC(0-inf) | 3240 ng·h/mL
CCCCCn1cc(C(=O)c2cccc3ccccc23)c2ccccc21 | Cannabinoid receptor 1 (CNR1, Homo sapiens, UniProt P21554) | β-arrestin 2 recruitment, agonist, BRET |  |  | reference: CB1 minus CB2 | Emax difference | ~90%
COc1cc(C(=O)NCCOCCOCCOCCNC(=O)c2ccc([18F])nc2)ccc1NC(=O)C1NC(CC(C)(C)C)C(C#N)(c2ccc(Cl)cc2F)C1c1cccc(Cl)c1F (stereo not drawn) | HepG2 tumour model |  | host not given, blood | 30 min, tumour-bearing |  | tracer uptake | 3.9 %ID/g
N=C(N)NCCC[C@@H]1NC(=O)[C@H](CCCCNC(=O)CNC(=O)CNC(=O)CNC(=O)CC[C@H](NC(=O)CCOCCOCCOCCOCCNC(=O)CC[C@H](NC(=O)CN2CCN(CC(=O)O)CCN(CC(=O)O)CCN(CC(=O)O)CC2)C(=O)NCCOCCOCCOCCOCCC(=O)N[C@@H](CCC(=O)NCC(=O)NCC(=O)NCC(=O)NCCCC[C@@H]2NC(=O)[C@@H](Cc3ccccc3)NC(=O)[C@H](CC(=O)O)NC(=O)CNC(=O)[C@H](CCCNC(=N)N)NC2=O)C(=O)NCC(=O)NCC(=O)NCC(=O)NCCCC[C@@H]2NC(=O)[C@@H](Cc3ccccc3)NC(=O)[C@H](CC(=O)O)NC(=O)CNC(=O)[C@H](CCCNC(=N)N)NC2=O)C(=O)NCC(=O)NCC(=O)NCC(=O)NCCCC[C@@H]2NC(=O)[C@@H](Cc3ccccc3)NC(=O)[C@H](CC(=O)O)NC(=O)CNC(=O)[C@H](CCCNC(=N)N)NC2=O)NC(=O)[C@@H](Cc2ccccc2)NC(=O)[C@H](CC(=O)O)NC(=O)CNC1=O [indium-111 labelled] |  |  | female athymic nude mice, brain | intravenous, 3 µCi, 1 h, U-87 MG glioma xenograft |  | tissue uptake | 0.07 %ID/g
CCCCCc1cc(O)c2c(c1)OC(C)(C)[C@@H]1CCC(C)=C[C@@H]21 |  | LC-MS/MS | male BALB/c mouse, plasma | intraperitoneal, 10 mg/kg, 1 h, with: cis-PET 50 mg/kg and trans-PET 40 mg/kg |  | plasma concentration | 470 nM
CN[C@@H]1[C@H](O)[C@H](NC)[C@H]2O[C@]3(O)[C@H](O[C@@H]2[C@H]1O)O[C@H](C)C[C@H]3NC(=O)Cc1ccc(Cl)cn1 |  |  | rat plasma |  |  | fraction unbound | 0.875
Cc1ccc2nc(C)c(C(=O)NCc3ccc(C(F)(F)F)cc3)n2c1 |  |  | dog liver microsomes |  |  | intrinsic clearance | 78 mL/min/g protein
CNc1nc(SC)nc2ccccc12 |  | CLND | phosphate-buffered saline | 1 (unit not given), pH 7.4 |  | kinetic solubility | ≥ 443 µM
COc1ccc(-n2cc(C(=O)N3C[C@]4(OC(=O)c5ccccc5NC(C)=O)CC[C@H](OC)[C@@]56[C@@H]4C[C@@H]([C@@H]35)[C@@]3(O)C[C@H](OC)[C@H]4C[C@@H]6[C@]3(O)[C@H]4OC)nn2)cc1 |  |  | Sprague-Dawley rat, plasma | intravenous, 2 mg/kg |  | Vd | 22.8 L/kg
COc1ccc(CCNc2cc(-c3ccccc3)nc3ncnn23)cc1 |  | CLND | phosphate-buffered saline | 1 (unit not given), pH 7.4 |  | kinetic solubility | 14 µM (≈ 4.84 µg/mL)
N=C(N)NCCCCCCN1CCC23c4c5ccc(O)c4OC2c2nc4ccccc4cc2CC3(O)C1C5 (stereo not drawn) |  | metabolic stability | human, liver microsomes | 1 µM, pH 7.4 |  | half-life | > 2 h
Cc1cccc(-c2nc(Nc3ccncn3)c3c(C)csc3n2)n1 |  | CLND | phosphate-buffered saline | 1 (unit not given), pH 7.4 |  | kinetic solubility | 23 µM (≈ 7.69 µg/mL)
CN[C@@H]1[C@H](O)[C@H](NC)[C@H]2O[C@]3(O)[C@H](O[C@@H]2[C@H]1O)O[C@H](C)C[C@H]3NC(=O)Cc1ccccn1 |  |  | rat plasma |  |  | fraction unbound | 0.714

Excerpt of the above:
Compound | tested on | assay | system | setting | how to read | quantity | value
Cc1ccc2nc(C)c(C(=O)NCc3ccc(C(F)(F)F)cc3)n2c1 |  |  | dog liver microsomes |  |  | intrinsic clearance | 78 mL/min/g protein
